Published values collected from several papers.
Parts stem from different laboratories: compare values within a part only. Changes are numbered by the printed parent chain.

Series 1 — technique: aptamer microarray, sandwich; form: DNA with 2'F-ANA; sample: in vitro; tested at: 200 nM; added: Cy3 exosite-II aptamer, 400 nM; direction: higher = stronger binding; quantity: mean fluorescence intensity; sequence: GGTTGGTGTGGTTGG
Target: Prothrombin, mature alpha-thrombin (F2, Homo sapiens, UniProt P00734)
Setting: whole 15-mer aptamer, many near background
2'F-ANA at 1 6 7 8 9 10 11: 76.8 a.u.
2'F-ANA at 1 4 6 7 10 11 13 14 15: 49.4 a.u.
2'F-ANA at 3 7 11 13 14: 650 a.u.
2'F-ANA at 1 5 7 8 10 11 12 13: 47.3 a.u.
2'F-ANA at 2 3 8 9 11 14 15: 386 a.u.
2'F-ANA at 1 2 3 8 12 15: 554 a.u.
2'F-ANA at 1 3 4 10 13: 53.4 a.u.
2'F-ANA at 1 2 4 5 7 8 10 11 12 14: 47.7 a.u.
2'F-ANA at 1 3 4 5 6 7 8 13 15: 51.1 a.u.
2'F-ANA at 1 2 4 7 11 12 13: 165 a.u.
2'F-ANA at 1 3 5 7 9 11 12 14 15: 48.3 a.u.
2'F-ANA at 1 2 7 8 10 13 14 15: 46.5 a.u.
2'F-ANA at 1 2 3 10 11 12 13 14: 65.8 a.u.
2'F-ANA at 6 7 8: 569 a.u.
2'F-ANA at 1 2 3 5 7 8 10 14 15: 51.3 a.u.
2'F-ANA at 1 3 4 5 7 10 13 14 15: 46 a.u.

Series 2 — technique: DHFR PCA, deep sequencing; sample: yeast; added: (+)-ABA 4.8 µM; relative to: wild-type fitted maximum; direction: higher = stronger binding; quantity: relative binding score
Target: ABI1, truncated, D143A, DHFR fusion (Arabidopsis thaliana)
Setting: methotrexate growth selection, single substitutions
Starting sequence: PYL1, truncated, DHFR fusion (Arabidopsis thaliana); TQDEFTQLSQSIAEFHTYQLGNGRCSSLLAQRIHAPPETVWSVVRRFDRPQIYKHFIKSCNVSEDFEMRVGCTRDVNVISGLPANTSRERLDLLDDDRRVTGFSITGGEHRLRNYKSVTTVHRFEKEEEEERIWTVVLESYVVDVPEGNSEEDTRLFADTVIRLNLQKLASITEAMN; partner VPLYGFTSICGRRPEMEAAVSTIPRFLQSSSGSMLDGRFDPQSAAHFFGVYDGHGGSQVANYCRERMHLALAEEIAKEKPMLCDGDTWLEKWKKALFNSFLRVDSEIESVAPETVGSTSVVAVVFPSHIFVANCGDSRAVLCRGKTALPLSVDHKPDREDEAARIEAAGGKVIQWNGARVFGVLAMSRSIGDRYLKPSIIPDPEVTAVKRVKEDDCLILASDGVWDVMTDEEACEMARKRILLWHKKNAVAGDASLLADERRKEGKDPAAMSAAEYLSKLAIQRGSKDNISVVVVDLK
G148C: 10.3%
K126Q: 83.8%
S27K: 5.79%
P83Y: 6.19%
H34V: 48.9%
S9Q: 80%
C25D: -9.32%
N165P: -4.07%
D95M: 17.5%
E139I: 49.6%
D75R: 63.5%
V137I: 33%
I162S: -2.12%
R45N: -5.69%
V70D: 9.7%
S117I: -12.8%
F56Q: -0.131%
G81I: 3.86%
D95V: -4.34%
V70F: -6.69%
L93I: 97.8%
A84T: 13.8%
S11Y: 70.8%
S59G: 52.8%
D96E: 78.4%

Series 3 — technique: RNA Bind-n-Seq; form: RNA; sample: in vitro; tested at: not given; relative to: input RNA pool; direction: higher = stronger binding; quantity: bound/input enrichment
Target: RING finger protein unkempt homolog, zinc fingers 1-6, GST-SBP tag (UNK, Homo sapiens, UniProt Q9C0B0, residues 30-357)
Chain of UniProt Q9C0B0 (30-357, looked up): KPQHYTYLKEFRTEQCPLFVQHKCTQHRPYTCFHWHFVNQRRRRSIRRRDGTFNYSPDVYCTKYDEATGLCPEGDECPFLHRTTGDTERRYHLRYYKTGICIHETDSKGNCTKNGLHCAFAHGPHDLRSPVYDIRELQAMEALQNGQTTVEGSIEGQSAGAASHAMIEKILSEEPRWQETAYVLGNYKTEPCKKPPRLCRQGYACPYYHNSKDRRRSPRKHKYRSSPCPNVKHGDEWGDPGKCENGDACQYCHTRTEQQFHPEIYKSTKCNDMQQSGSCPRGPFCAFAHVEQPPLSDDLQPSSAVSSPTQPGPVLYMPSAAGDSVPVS
Setting: RNA with constant flanks, human-mouse chimeric sites, ends assumed
Shared flanks, not repeated: GGGAGUUCUACAGUCCGACGAUC … CAACAGAGGAUUGAGCAUCA
GAGCCCAGCCGGCAGUUUGUAAAGGACUCAAUUCGGCUGGUUAAAAGAUGCACUAAACCUGAUAGAAAAGAAUUCCAGAAGAUUGCCAUGGCUACAGCUAUAGGAUUUGCUAUCAUGGGA: 0.212 ratio
CUGGCCUGGCCCUCCCCAGGGGCCUCCUUUCGUAUAGUCACUGCUUCUGCAUCAGAUACUUUCAGCUCCAAGUCCUGACUGGGUGGGGCACCCAUUUGAGGCAGGGUGUUUUGGUACCCU: 0.407 ratio
GCCACCAGAUCCCAGAAACAUGACUCUUGCUGCCUACAAGGAGAAGAUGAAGGAGCUCCCGCUGGUGUCCUUGUUCUGCUCCUGCUUCCUGGCCGAUCCCCUGAAUAAGUCGUCCUACAA: 0.14 ratio
GUAAUGUUUAUUCAUUUAACUUAUUUUUAUAGCUAGAGCAAUAUUGUUAGUCUUAGACAAUAGCUCACAUUUUUUGAGAAGCAUGCCCUCCCUGUCCAUUUGUCUUAUAACAUGACCCAG: 31.9 ratio
UGUGCAUAUGAUGCUUGAGAUGGUUUUUGCAAAAGCAGAAAUCGCUGCAAGGUCAUUACAAUAGAUAAAAGUGGUAUUUUAAACCUUUGAAAUAAAUGGAUGUAACUGUACCUUGGUACA: 0.412 ratio
GUAGCUGGGACUACAGAAAUGCUGGUAGUGCUCCGGCCUUGCUGAUGACUUCUGAUGUCCCAGCAAAUGUUGGCAUUGUUGACUGCUGAGAAGAUACUUCUGAGGACAUACAGCAGUGGU: 0.136 ratio
GCCACCAGAUCCCAGAAACAUGACCCUUGCAGCCUAUAAAGAGAAGAUGAAGGAGCUCCCGCUGGUGUCCUUGUUCUGCUCCUGCUUCCUGGCCGAUCCCCUGAAUAAAUCAUCCUACAA: 0.347 ratio
CGCUGGCGUUGAACUGUGGACUCUGAUCUUGAUCUCUUCUCAGGCACGUGUGCCUUCUCUUAGUCCCUGUUUUCGGGAUGUUAUGAAUCUCAGUACUGUGGUUUGAAAGCACCAGCUUUG: 0.218 ratio

Series 4 — technique: RNA Bind-n-Seq; form: RNA; sample: in vitro; tested at: 365 nM; relative to: no-protein control; direction: higher = stronger binding; quantity: RBNS enrichment (R)
Target: RNA binding protein fox-1 homolog 2, RRM domain, GST-SBP tag (RBFOX2, Homo sapiens, UniProt O43251-10, residues 100-194)
Setting: natural RNA segment, single round, ends assumed
Shared flanks, not repeated: GGGAGUUCUACAGUCCGACGAUC … UGGAAUUCUCGGGUGCCAA
AAAGGGAGCUAGCACCUCUCCAUCCCUUUCUCUUACUGCCAUUGGAAAUUAUUUUAGGGCUGAGAUAGGGGUGGAACGAGCAGGCUUGUUUCCACCAAUAGUGCCAAGAA: 0.366
UAAAAUCUCUGAAGGAUCAUCUAUGUAUUCAAGUAAUUAUUUUUUAGAUAAUAACUGUCUUCUGGACUUGGUCUUGAAGUCUGUACAGAUUCAGCCUCAGUAGUAGCGAA: 0.439
CCUCGCCACAGGGAAGCACAAGAACCCCCUCCAUCCCGGAGGAUGCAGGACACGAAGCCCCGGGGUGGGCGGGAGGAGGCUGACCUUUUACCUGCGCAUAGACUUUGAUU: 0.529
CCCAUCAGGCAGGCGCCAGUCCGCUGGGUCCCUGUCCAUCCUUUCCACCCCCAGUACCCCAGGUGUGUAUACCCAGGUCAUACACUGCAACCCCAAGUGGUCCCAGGAUC: 0.382
AUCUGAAGAACACAGUAUCAUGACUCGGGUGGAAAGGGAGGCAGAAGCCAUUUUUCUUUUAGAUGAAAAGCAUUCUGUGUGAUUGUUGUAUAAUAAAUUGAUUUUUACAC: 0.733
GUACAGCUCUGUGAAAGUUCUGAUUCUCUUCCUUCCCUGUUUGUCAAUGUUUUAUUCUGAAGUAAACGUUAGCUCUACAUAUAAAUCCUGGAACAGAAAUUGUUUAUAGA: 0.506
GCUUGGAAGCAAUUUUUAAAGGGAGUGGAAAGCUUAGGGAAAUCGUUUGUAUUUGGAGUCUUGCUGUGUCUGGUAUUGGAGGUGUGGACACCUUGAGUCUGGGUGAGUUG: 2.73
CAUUUCUUCUCAUCCCCUGCUUGGCUUCUCUGCAUGUGGUCAUCUGCUAUGGCCUGGUGUGUAAUGGGUUAAACAAUAAGCCACUGCCUGACACCCACAUCCACUUUAGC: 3.96
